Assay results from different studies.
“And” joins repeats or separate records; there may be more than shown. ± marks the error that the study gave.
Genome polyprotein NS2B-NS3 protease: Genome polyprotein, NS2B-NS3 protease (dengue virus type 2, UniProt P29990)
Chain of UniProt P02730 (whole entry, looked up): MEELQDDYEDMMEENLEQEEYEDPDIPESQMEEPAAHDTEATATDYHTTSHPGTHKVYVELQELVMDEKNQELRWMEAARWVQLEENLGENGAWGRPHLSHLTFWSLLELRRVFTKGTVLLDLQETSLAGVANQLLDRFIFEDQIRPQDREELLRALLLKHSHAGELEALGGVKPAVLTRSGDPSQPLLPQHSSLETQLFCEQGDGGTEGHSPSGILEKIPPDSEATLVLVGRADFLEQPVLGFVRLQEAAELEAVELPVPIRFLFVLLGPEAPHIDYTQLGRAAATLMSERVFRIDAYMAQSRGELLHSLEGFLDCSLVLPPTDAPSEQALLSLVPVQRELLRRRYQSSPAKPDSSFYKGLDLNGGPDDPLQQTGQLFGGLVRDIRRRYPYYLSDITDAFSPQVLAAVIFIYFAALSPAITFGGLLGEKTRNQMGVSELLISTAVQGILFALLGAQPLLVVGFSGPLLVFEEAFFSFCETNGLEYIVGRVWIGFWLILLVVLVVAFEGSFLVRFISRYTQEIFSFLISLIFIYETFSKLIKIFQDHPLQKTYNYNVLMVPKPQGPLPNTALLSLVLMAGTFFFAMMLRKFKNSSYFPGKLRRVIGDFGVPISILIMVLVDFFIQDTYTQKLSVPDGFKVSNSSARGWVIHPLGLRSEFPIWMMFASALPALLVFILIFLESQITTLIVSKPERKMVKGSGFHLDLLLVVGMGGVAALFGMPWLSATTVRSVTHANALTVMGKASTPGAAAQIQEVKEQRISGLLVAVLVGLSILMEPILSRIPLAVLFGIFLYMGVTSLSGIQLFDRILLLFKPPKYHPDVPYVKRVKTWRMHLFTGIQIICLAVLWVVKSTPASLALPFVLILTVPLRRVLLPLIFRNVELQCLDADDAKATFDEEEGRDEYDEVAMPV
Chain of UniProt P47746 (whole entry, looked up): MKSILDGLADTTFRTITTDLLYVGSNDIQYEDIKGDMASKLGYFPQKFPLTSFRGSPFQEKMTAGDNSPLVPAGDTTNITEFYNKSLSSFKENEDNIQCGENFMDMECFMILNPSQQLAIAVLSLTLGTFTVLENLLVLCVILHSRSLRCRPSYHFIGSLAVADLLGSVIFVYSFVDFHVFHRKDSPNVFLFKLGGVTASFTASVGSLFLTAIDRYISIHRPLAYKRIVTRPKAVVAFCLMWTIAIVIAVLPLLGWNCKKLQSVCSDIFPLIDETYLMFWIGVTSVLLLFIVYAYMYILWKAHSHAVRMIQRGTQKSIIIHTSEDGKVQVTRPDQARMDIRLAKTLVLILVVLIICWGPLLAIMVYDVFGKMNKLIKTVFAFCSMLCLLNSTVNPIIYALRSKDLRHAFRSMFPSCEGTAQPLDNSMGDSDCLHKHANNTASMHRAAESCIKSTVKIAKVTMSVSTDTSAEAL
Chain of UniProt P20272 (whole entry, looked up): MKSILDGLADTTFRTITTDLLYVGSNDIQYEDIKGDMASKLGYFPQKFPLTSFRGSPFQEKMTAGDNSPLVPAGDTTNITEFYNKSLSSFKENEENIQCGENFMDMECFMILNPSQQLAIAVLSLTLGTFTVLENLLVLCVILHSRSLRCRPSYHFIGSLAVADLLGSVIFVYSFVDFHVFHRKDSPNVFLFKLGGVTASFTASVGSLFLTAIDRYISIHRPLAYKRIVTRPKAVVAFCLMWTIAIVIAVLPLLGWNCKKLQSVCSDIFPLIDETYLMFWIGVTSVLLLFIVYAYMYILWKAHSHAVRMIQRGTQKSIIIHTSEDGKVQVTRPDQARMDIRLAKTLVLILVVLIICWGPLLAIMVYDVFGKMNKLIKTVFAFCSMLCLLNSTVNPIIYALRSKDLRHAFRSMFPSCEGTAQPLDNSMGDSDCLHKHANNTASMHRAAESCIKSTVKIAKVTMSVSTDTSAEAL
Chain of UniProt Q14994 (whole entry, looked up): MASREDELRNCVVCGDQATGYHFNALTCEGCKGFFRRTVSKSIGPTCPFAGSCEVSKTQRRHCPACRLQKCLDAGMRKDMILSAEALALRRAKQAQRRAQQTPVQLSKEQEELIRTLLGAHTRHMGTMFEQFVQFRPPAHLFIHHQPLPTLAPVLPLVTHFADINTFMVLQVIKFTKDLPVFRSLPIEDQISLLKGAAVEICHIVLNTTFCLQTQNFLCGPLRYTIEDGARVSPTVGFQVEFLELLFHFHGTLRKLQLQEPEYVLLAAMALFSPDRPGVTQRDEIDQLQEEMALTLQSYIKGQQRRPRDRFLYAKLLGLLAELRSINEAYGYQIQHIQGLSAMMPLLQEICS
Chain of UniProt Q8VD00 (whole entry, looked up): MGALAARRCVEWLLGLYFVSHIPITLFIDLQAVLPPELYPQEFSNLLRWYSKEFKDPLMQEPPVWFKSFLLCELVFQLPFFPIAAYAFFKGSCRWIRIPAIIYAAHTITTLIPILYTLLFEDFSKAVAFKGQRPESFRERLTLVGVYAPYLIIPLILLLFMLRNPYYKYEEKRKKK
Chain of UniProt P41145 (whole entry, looked up): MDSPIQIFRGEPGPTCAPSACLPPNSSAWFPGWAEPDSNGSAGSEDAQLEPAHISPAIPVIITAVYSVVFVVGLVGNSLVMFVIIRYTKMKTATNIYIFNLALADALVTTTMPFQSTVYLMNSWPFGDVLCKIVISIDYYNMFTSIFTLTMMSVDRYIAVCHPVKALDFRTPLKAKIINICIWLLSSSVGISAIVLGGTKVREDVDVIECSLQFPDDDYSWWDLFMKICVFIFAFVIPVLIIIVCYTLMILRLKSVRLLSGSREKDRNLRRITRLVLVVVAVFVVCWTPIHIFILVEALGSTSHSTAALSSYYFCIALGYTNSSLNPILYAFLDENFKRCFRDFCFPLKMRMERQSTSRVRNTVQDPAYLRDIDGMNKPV
Chain of UniProt P23141 (whole entry, looked up): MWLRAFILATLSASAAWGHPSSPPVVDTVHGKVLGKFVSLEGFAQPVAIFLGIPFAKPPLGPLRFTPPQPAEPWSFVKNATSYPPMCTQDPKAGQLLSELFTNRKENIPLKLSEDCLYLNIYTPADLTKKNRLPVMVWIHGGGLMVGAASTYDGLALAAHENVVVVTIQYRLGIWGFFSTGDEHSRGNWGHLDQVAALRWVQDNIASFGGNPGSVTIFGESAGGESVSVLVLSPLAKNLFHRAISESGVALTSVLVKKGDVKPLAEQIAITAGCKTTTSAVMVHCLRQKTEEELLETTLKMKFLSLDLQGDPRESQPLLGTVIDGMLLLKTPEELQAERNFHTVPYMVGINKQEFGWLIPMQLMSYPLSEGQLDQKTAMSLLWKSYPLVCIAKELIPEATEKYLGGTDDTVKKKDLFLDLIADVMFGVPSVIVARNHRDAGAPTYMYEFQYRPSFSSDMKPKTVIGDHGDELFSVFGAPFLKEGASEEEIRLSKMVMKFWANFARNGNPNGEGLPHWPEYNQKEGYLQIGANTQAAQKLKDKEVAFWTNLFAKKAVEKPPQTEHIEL
Chain of UniProt Q8BZP8 (whole entry, looked up): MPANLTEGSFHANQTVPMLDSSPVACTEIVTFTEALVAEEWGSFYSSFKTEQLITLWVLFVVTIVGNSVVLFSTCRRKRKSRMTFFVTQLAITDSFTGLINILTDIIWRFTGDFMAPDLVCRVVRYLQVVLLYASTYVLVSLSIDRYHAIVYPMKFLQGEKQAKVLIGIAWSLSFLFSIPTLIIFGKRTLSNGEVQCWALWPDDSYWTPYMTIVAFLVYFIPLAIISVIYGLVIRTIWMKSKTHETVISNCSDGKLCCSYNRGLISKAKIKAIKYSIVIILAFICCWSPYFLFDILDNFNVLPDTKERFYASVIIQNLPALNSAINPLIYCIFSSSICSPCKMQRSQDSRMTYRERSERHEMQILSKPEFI
Chain of UniProt P30536 (whole entry, unmodified, looked up): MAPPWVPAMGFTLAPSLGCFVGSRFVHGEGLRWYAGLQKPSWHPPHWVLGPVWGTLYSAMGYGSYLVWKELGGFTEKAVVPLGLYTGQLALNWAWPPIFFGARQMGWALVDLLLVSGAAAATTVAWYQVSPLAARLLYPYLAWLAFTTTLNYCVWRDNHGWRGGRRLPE

With O=C(NCc1ccc(F)cc1)N1CCN2C(=O)OC(c3ccccc3)(c3ccccc3)C2C1 (stereo not shown) the Kb was 0.0145 µM (Neuropeptide S receptor (Mus musculus, UniProt Q8BZP8); calcium mobilization, antagonist; HEK293 expressing mouse NPSR; 24 min preincubation, 37 °C, together with: 30 nM NPS).
N=C(N)NCCC[C@@H]1NC(=O)[C@H](CCCCNC(=O)CNC(=O)CNC(=O)CNC(=O)CC[C@H](NC(=O)CCOCCOCCOCCOCCNC(=O)c2ccc(NN)nc2)C(=O)NCC(=O)NCC(=O)NCC(=O)NCCCC[C@@H]2NC(=O)[C@@H](Cc3ccccc3)NC(=O)[C@H](CC(=O)O)NC(=O)CNC(=O)[C@H](CCCNC(=N)N)NC2=O)NC(=O)[C@@H](Cc2ccccc2)NC(=O)[C@H](CC(=O)O)NC(=O)CNC1=O [technetium-99m labelled] has a tissue uptake of 6.64 ± 0.41 %ID/g (γ-counting; female athymic nude mice, U-87 MG xenograft, kidneys; intravenous, 2 h).
Cc1cccc(Cn2cc(COc3cc(-n4nc(C(C)(C)C)oc4=O)c(Cl)cc3Cl)nn2)c1 gave an IC50 of 34.6 ± 8.9 µM (Toxoplasma gondii; intracellular growth; HFF, Δppo knockout; 96 h).
For Clc1ccc(-c2nn3c(COc4cccc(OCc5nnc6sc(-c7ccc(Cl)cc7)nn56)c4)nnc3s2)cc1, the IC50 was over 10 µM (Genome polyprotein NS2B-NS3 protease; enzyme activity, inhibitor; Dengue virus; pH 8.0, together with: 20 µM Pyr-RTKR-AMC).
With `anthraquinone-neomycin` the AC50 was 0.138 ± 0.02 µM (poly(dA)•2poly(dT) triplex; thiazole orange displacement, fluorescence intercalator displacement; pH 6.8, KCl 150 mM, together with: thiazole orange 1.25 µM).
CC(C)c1ccc2c(c1)CC[C@H]1[C@](C)(CN)CCC[C@]21C gave an IC50 of 1.66 µM (SK-MEL-24; cell growth or viability, MTS; 48 h).
Clc1ccc(-c2nn3c(COc4cc(Cl)c(OCc5nnc6sc(-c7ccc(Cl)cc7)nn56)cc4Cl)nnc3s2)cc1 has an IC50 of over 10 µM (Genome polyprotein NS2B-NS3 protease; enzyme activity, inhibitor; Dengue virus; pH 8.0, together with: 20 µM Pyr-RTKR-AMC).
With CC(C)(C)c1nn(-c2cc(OCc3cn(Cc4ccc(Br)cc4)nn3)c(Cl)cc2Cl)c(=O)o1 the IC50 was 25.8 ± 4.8 µM (Toxoplasma gondii; intracellular growth; HFF, Δppo knockout; 96 h).
The Kd of CC[C@H](C)[C@@H](CC(=O)N[C@@H](CCC(=O)O)CC(=O)O)NC(=O)C[C@@H](NC(=O)C[C@H](CCCN)NC(=O)C[C@H](Cc1c[nH]c2ccccc12)NC(=O)C[C@@H](NC(=O)C[C@H](CCC(=O)O)NC(=O)C[C@H](Cc1c[nH]c2ccccc12)NC(=O)C[C@@H](NC(=O)C[C@@H](N)CCCN)C(C)C)C(C)C)C(C)C is reported as 16.5 ± 0.6 µM (HIV-1 gp41 IQN17; fluorescence polarization; fluorescein-labelled compound).
With N=C(N)c1ccc(-c2ccc(-c3cccs3)o2)c(F)c1 the mutant frequency was 18% (Salmonella enterica; TA1535; 10 µM, 48 h, together with: sodium azide co-exposure; baseline: sodium azide alone).
CNC(C)Cc1ccc2c(c1)OCO2 (racemic) gave a mood rating of 11.1 (visual analog scale, refers to: Lonely; human; oral, 1.5 mg/kg, mean over session, unit not given; baseline: pre-dose baseline).
O=C(Oc1ccc([N+](=O)[O-])cc1)N1CCC(C(O)(c2ccc3c(c2)OCO3)c2ccc3c(c2)OCO3)CC1 has an IC50 of under 0.1 µM (Liver carboxylesterase 1 (CES1, Homo sapiens, UniProt P23141); enzyme activity, inhibitor, activity-based protein profiling; THP-1 cell lysate; 30 min, together with: FP-biotin 2 µM).
The Ki of CCN(Cc1ccccc1)C(=O)Cn1c2ccccc2c2ccccc21 is reported as 0.46 ± 0.083 µM (Translocator protein, A147T (TSPO, Homo sapiens, UniProt P30536); radioligand binding; together with: [3H]PK11195).
With CCn1cnc2c(Nc3cccc(Cl)c3)nc(N[C@@H]3CCCC[C@@H]3N)nc21 the IC50 was 7 ± 2 µM (HeLa expressing Luc-ODC; Luc-ODC degradation, inhibitor, cycloheximide chase luciferase).
The inhibition of N=C(N)c1ccc(-c2ccc(-c3cccs3)o2)cc1F is reported as 109% (Salmonella enterica; sodium azide mutagenicity; TA1535; 20 µM, 48 h, together with: sodium azide 2 µg/plate co-exposure).
With C[C@H]1CNCCc2ccc(Cl)cc21 the plasma concentration was 0.0176 ± 0.00077 µg/mL (Sprague-Dawley rat, male, plasma; subcutaneous, 3 mg/kg, 180 min).
CCCCN1C(=O)C(C=CC=CC=C2C(=O)N(c3ccc(S(=O)(=O)O)cc3)N=C2C)C(=O)N(CCCC)C1=O has a Ki of 0.52 to 0.53 µM and 0.524 to 0.529 µM (SLC4A1 (Homo sapiens, UniProt P02730); 36Cl exchange flux, inhibitor; human erythrocytes; 0 °C, chloride-loaded form, short exposure).
For `cholecystokinin octapeptide`, the EC50 was 0.00211 ± 0.00015 µM (rat pancreatic acini; agonist).
For CC(=O)C[C@@H](c1ccccc1)c1c(O)c2ccc(O)cc2oc1=O, the Ki was 1310 µM (substrate, refers to: 7-hydroxywarfarin 7-glucuronide; pooled human liver microsomes).
With Cc1cc(O)cc(C)c1C[C@H](N)C(=O)NCCN(C)CCN1CCc2ccccc2C1 the EC50 was 1.22 µM (Kappa-type opioid receptor (OPRK1, Homo sapiens, UniProt P41145); GTPγS binding, agonist, radiometric; cell membranes).
With CCCCCCC(C)(C)c1ccc([C@@H]2C[C@H](O)CC[C@H]2CCCO)c(O)c1 the IC50 was 0.0098 ± 0.0037 µM (Cannabinoid receptor 1 (Cnr1, Mus musculus, UniProt P47746); cAMP level, agonist; Neuro2A; together with: 10 µM forskolin).
The IC50 of COC(=O)[C@@]1(O)C[C@H]2O[C@]1(C)n1c3ccccc3c3c4c(c5c6ccccc6n2c5c31)C(=O)NC4 is reported as 2.5 ± 0.7 µM (HeLa expressing Luc-ODC; Luc-ODC degradation, inhibitor, cycloheximide chase luciferase).
The tracer uptake of CN[C@@](C)(C[18F])C(=O)O is reported as 11 %ID/g (SK-OV-3 tumour model; host not given, kidney; 30 min, tumour-bearing).
CCCCCc1cc(O)c2c(c1)OC(C)(C)[C@@H]1CCC(C)=C[C@@H]21 has an Emax of 43.5% (Cannabinoid receptor 1 (Cnr1, Rattus norvegicus, UniProt P20272); G protein activation, agonist; Sprague-Dawley rat, female, cerebellar membranes; baseline: basal binding).
For CN1CC[C@]23c4c5ccc(O)c4O[C@H]2[C@@H](O[C@@H]2O[C@H](C(=O)O)[C@@H](O)[C@H](O)[C@H]2O)C=C[C@H]3[C@H]1C5, the Papp was 27.1 ± 0.4 nm/s (MDCK-MDR1; 100 min, together with: cyclosporine 10 µM).
The tumour-to-muscle ratio of N=C(N)NCCC[C@@H]1NC(=O)[C@H](CCCCNC(=O)[C@H](CC(=O)O)NC(=O)[C@H](CC(=O)O)NC(=O)[C@H](CC(=O)O)NC(=O)CC[C@H](NC(=O)CCOCCOCCOCCOCCNC(=O)c2ccc(NN)nc2)C(=O)N[C@@H](CC(=O)O)C(=O)N[C@@H](CC(=O)O)C(=O)N[C@@H](CC(=O)O)C(=O)NCCCC[C@@H]2NC(=O)[C@@H](Cc3ccccc3)NC(=O)[C@H](CC(=O)O)NC(=O)CNC(=O)[C@H](CCCNC(=N)N)NC2=O)NC(=O)[C@@H](Cc2ccccc2)NC(=O)[C@H](CC(=O)O)NC(=O)CNC1=O [technetium-99m labelled] is reported as 1.8 ± 0.11 (athymic nude mice, female, U-87 MG glioma xenograft, tumour and muscle; intravenous, dose not given, 60 min, together with: excess RGD2 14 mg/kg co-injected; baseline: tumour over muscle).
With CCCCC(CC)COC(=O)c1ccccc1C(=O)O (stereo not shown) the EC50 was 2.2 µM (Nuclear receptor subfamily 1 group I member 3, isoform CAR2 (Homo sapiens, UniProt Q14994); reporter gene, activator; COS-1; 24 h).
COc1cccc2c1C(=O)c1c(O)c3c(c(O)c1C2=O)C[C@@](O)(C(=O)CO)C[C@@H]3O[C@H]1C[C@H](NC(=O)[C@H](CC(C)C)NC(=O)[C@H](C)NC(=O)[C@H](CC(C)C)NC(=O)CCNC(=O)CCC(=O)O)[C@H](O)[C@H](C)O1 has a terminal half-life of 20.5 h (mouse, E0771 tumour-bearing, liver; intravenous, 92 µmol/kg).
CCCCCCCCCCCCCC(=O)O[C@@H]1[C@@H](C)[C@@]2(O)[C@@H](C=C(CO)C[C@]3(O)C(=O)C(C)=C[C@@H]23)[C@H]2C(C)(C)[C@]12OC(C)=O gave a remaining activity of 235 ± 22% (PKCθ rat; kinase activity; 1 µM, immunoprecipitated enzyme, together with: PKC substrate peptide; baseline: untreated).
The IC50 of Fc1cc(C2=Nn3c(COc4ccc(Cl)cc4Cl)nnc3S/C2=C\c2ccc(-c3ccc(Cl)cc3)o2)c(Cl)cc1Cl is reported as over 10 µM (Genome polyprotein NS2B-NS3 protease; enzyme activity, inhibitor; Dengue virus; pH 8.0, together with: 20 µM Pyr-RTKR-AMC).
For CC(C)(C)c1ccc(S(=O)(=O)/C=C/C#N)cc1, IC50 read “no inhibition” (C2C12; NF-κB reporter gene; 24 h, together with: TNF-α 10 ng/mL).
With C=CCN1CCC2(C)c3cc(O)ccc3CC1C2C (single isomer, unassigned; (-)) the Ki was 4.22 µM (Sigma intracellular receptor 2 (Tmem97, Mus musculus, UniProt Q8VD00); ligand displacement, radioligand; cell membranes).
CC(C)(C)c1nn(-c2cc(OCc3cn(Cc4cccc(Br)c4)nn3)c(Cl)cc2Cl)c(=O)o1 has an IC50 of 31.5 ± 8 µM (Toxoplasma gondii; intracellular growth; HFF, Δppo knockout; 96 h).
With CCCCn1cc(C(=O)c2cccc3ccccc23)c2cccc(O)c21 the Kb was 0.0481 µM (Cannabinoid receptor 1 (Cnr1, Mus musculus, UniProt P47746); antagonist, Schild analysis; mouse brain homogenate; together with: JWH-018).

For quick reference, copied from above:
The IC50 of COC(=O)[C@@]1(O)C[C@H]2O[C@]1(C)n1c3ccccc3c3c4c(c5c6ccccc6n2c5c31)C(=O)NC4 is reported as 2.5 ± 0.7 µM (HeLa expressing Luc-ODC; Luc-ODC degradation, inhibitor, cycloheximide chase luciferase).
With C=CCN1CCC2(C)c3cc(O)ccc3CC1C2C (single isomer, unassigned; (-)) the Ki was 4.22 µM (Sigma intracellular receptor 2 (Tmem97, Mus musculus, UniProt Q8VD00); ligand displacement, radioligand; cell membranes).
For CC(C)(C)c1ccc(S(=O)(=O)/C=C/C#N)cc1, IC50 read “no inhibition” (C2C12; NF-κB reporter gene; 24 h, together with: TNF-α 10 ng/mL).
CC(C)(C)c1nn(-c2cc(OCc3cn(Cc4cccc(Br)c4)nn3)c(Cl)cc2Cl)c(=O)o1 has an IC50 of 31.5 ± 8 µM (Toxoplasma gondii; intracellular growth; HFF, Δppo knockout; 96 h).
